Assay results collected from several papers.
± marks the error that the study gave.

With `CNCc1ccc(-c2[nH]c3cc(F)cc4c3c2CCNC4=O)cc1` the Cmax was 0.159 µg/mL (human cancer patients, plasma; intravenous, 4 mg/m2, day 4, added: temozolomide 100).
`COc1cc2c(cc1OC)[C@H]1CC(=O)[C@H](CC(C)C)CN1CC2` (racemic) has a Cmax of 0.00029 µg/mL (human CYP2D6 extensive metabolizers, plasma; oral, 25 mg, fasted, arithmetic mean).
The Cmax of `CCOc1cc([C@@H](CS(C)(=O)=O)N2C(=O)c3cccc(NC(C)=O)c3C2=O)ccc1OC` is reported as 0.564 µg/mL (human, plasma; oral, 30 mg twice daily, steady state, mean, added: methotrexate).
The Cmax of `Nc1ncc(-c2cnn(CCO)c2)c2scc(-c3ccc(NC(=O)Nc4cccc(F)c4)cc3)c12` is reported as 0.839 µg/mL (human patients, plasma; oral, 690 mg once weekly, first dose).
For `CO[C@H]1C[C@@H]2CC[C@@H](C)[C@@](O)(O2)C(=O)C(=O)N2CCCC[C@H]2C(=O)O[C@H]([C@H](C)C[C@@H]2CC[C@@H](OC(=O)C(C)(CO)CO)[C@H](OC)C2)CC(=O)[C@H](C)/C=C(\C)[C@@H](O)[C@@H](OC)C(=O)[C@H](C)C[C@H](C)/C=C/C=C/C=C/1C`, the Cmax was 1.21 µg/mL (human, whole blood; intravenous, 60 mg/m2, cycle 1, added: valproic acid).
For `CC[C@@]1(O)C(=O)OCc2c1cc1n(c2=O)Cc2cc3c(CN(C)C)c(O)ccc3nc2-1`, the Cmax was 0.00929 µg/mL (human patients, plasma; oral, 4 mg, day 1, geometric mean, alone).
`CC(C)(C)OC[C@@H]1C(=O)NCCN1C(=O)C[C@H](N)Cc1cc(F)c(F)cc1F` has a Cmax of 0.0115 ± 0.0032 µg/mL (human; 10 mg once daily, steady state, day 10).
`O=C(O)CNC(=O)c1c(O)c2ccccc2n(OCC2CC2)c1=O` gave a Cmax of 1.59 ± 0.682 µg/mL (LC-MS/MS; human, blood; oral, 150 mg multiple doses).
`C[C@@H]1COC(Nc2ccc3ncnc(Nc4ccc(OCc5nccs5)c(Cl)c4)c3c2)=N1` has a Cmax of 4.67 ± 3.01 µg/mL (human patients, plasma; oral, 400 mg intermittent, cycle 1).
With `C=CC(=O)Nc1cc(Nc2ncc(C(=O)OC(C)C)c(-c3cn(C)c4ccccc34)n2)c(OC)cc1N(C)CCN(C)C` the Cmax was 0.0086 µg/mL (human, fasted; oral, 40 mg single dose, arithmetic mean).
With `CCCC[C@H](NC(C)=O)C(=O)N[C@H]1CCC(=O)NC[C@@H](C(=O)N[C@@H](Cc2c[nH]c3ccccc23)C(N)=O)NC(=O)[C@H](CCCNC(=N)N)NC(=O)[C@@H](Cc2ccccc2)NC(=O)[C@H](Cc2c[nH]cn2)NC1=O` the Cmax was 0.0544 µg/mL (healthy human, both sexes, plasma; subcutaneous, 3.0 mg once daily, day 1, arithmetic mean).
`COC(=O)c1ccc2c(c1)NC(=O)/C2=C(\Nc1ccc(N(C)C(=O)CN2CCN(C)CC2)cc1)c1ccccc1` gave a Cmax of 0.0093 µg/mL (healthy human controls matched to Child-Pugh A, plasma; oral, 100 mg single dose, fed, adjusted geometric mean).
For `COCCCCn1c(C(=O)N(CC(C)C)[C@@H]2CNC[C@H](C(=O)N3CCOCC3)C2)nc2ccccc21`, the Cmax was 1.07 µg/mL (human, elderly, plasma; oral, 80 mg once daily, day 7, mean).
`N[C@]1(C(=O)O)[C@H]2[C@@H](C[C@@H]1F)[C@@H]2C(=O)O` gave a Cmax of 0.0778 µg/mL (human, fed, plasma; oral, 20 mg multiple, day 14).
With `COc1cc(Nc2ncc3c(n2)-c2ccc(Cl)cc2C(c2c(F)cccc2OC)=NC3)ccc1C(=O)O` the Cmax was 3.03 µM (human, plasma; oral, 60 mg twice daily, day 7, steady state, geometric mean).
With `CO[C@H]1C[C@@H]2CC[C@@H](C)[C@@](O)(O2)C(=O)C(=O)N2CCCC[C@H]2C(=O)O[C@H]([C@H](C)C[C@@H]2CC[C@@H](O)[C@H](OC)C2)CC(=O)[C@H](C)/C=C(\C)[C@@H](O)[C@@H](OC)C(=O)[C@H](C)C[C@H](C)/C=C/C=C/C=C/1C` the Cmax was 0.0085 µg/mL (healthy human subjects, whole blood; oral, 2 mg single dose, arithmetic mean, added: isavuconazole 200 mg once daily after loading).
The Cmax of `O=C(CCCCCCC(=O)Nc1ccccc1)NO` is reported as 0.991 µM (human, serum; oral, 300 mg three times daily, 3 days, added: idarubicin).
With `C=C(C)[C@@H]1CC[C@]2(NCCN3CCS(=O)(=O)CC3)CC[C@]3(C)[C@H](CC[C@@H]4[C@@]5(C)CC=C(C6=CC[C@@](CF)(C(=O)O)CC6)C(C)(C)[C@@H]5CC[C@]43C)[C@@H]12` the Cmax was 1.43 µg/mL (healthy human volunteers; oral, 200 mg, tablet, moderate-fat meal, arithmetic mean).
`NS(=O)(=O)OC[C@@H]1C[C@@H](n2ccc3c(N[C@H]4CCc5ccccc54)ncnc32)C[C@@H]1O` gave a Cmax of 0.178 µg/mL (human; intravenous, 20 mg/m^2, day 1).
`Cc1nc(-c2ccc(OCC(C)C)c(C#N)c2)sc1C(=O)O` gave a Cmax of 0.695 µg/mL (human, plasma; oral, 40 mg, added: verinurad 15 mg).
With `CCCCC1(CCCC)CN(c2ccccc2)c2cc(SC)c(OCC(=O)N[C@@H](C(=O)NCC(=O)O)c3ccccc3)cc2S(=O)(=O)C1` the Cmax was 0.00136 µg/mL (LC-MS/MS; human, plasma; oral, 10 mg, single dose, fasted).
`C=CCNC1=C2C[C@@H](C)C[C@H](OC)[C@H](O)[C@@H](C)/C=C(\C)[C@H](OC(N)=O)[C@@H](OC)/C=C\C=C(/C)C(=O)NC(=CC1=O)C2=O` gave a Cmax of 10.3 µM (human, plasma; intravenous infusion, 400 mg/m^2, day 1, 3 h infusion).
For `CC(=O)O[C@H]1C(=O)[C@@]2(C)[C@H]([C@H](OC(=O)c3ccccc3)[C@]3(O)C[C@H](OC(=O)[C@H](O)[C@@H](NC(=O)c4ccccc4)c4ccccc4)C(C)=C1C3(C)C)[C@]1(OC(C)=O)CO[C@@H]1C[C@@H]2O`, the Cmax was 1.01 ± 0.34 µM (human patients on no protease inhibitor, plasma; iv, 100 mg/m^2 over 3 h, cycle 1).
The Cmax of `O=C(c1cccnc1-c1ccncc1)N1CCC(O)(Cc2ccccc2)CC1` is reported as 0.468 µg/mL (healthy human, plasma; oral, 100 mg once daily, day 1, arithmetic mean).
The Cmax of `CCCCCCCCCCCCCCC[C@H](O)[C@@H](N)CO` is reported as 3.4 µM (human, phase I, plasma; intravenous, 120 mg/m^2, day 1, monotherapy).
For `Cc1nc(Nc2ncc(C(=O)Nc3c(C)cccc3Cl)s2)cc(N2CCN(CCO)CC2)n1`, the Cmax was 0.008 ± 0.0045 µg/mL (human, plasma; oral, 100 mg single dose, day 6 fasted, arithmetic mean, added: omeprazole 40 mg daily steady state, 10 h before).
The Cmax of `C#C[C@]1(CO)O[C@@H](n2cnc3c(N)nc(F)nc32)C[C@@H]1O` is reported as 0.241 µM (human, plasma; oral, 10 mg once weekly, week 3).
The Cmax of `CN1CCc2nc(C(=O)N[C@@H]3C[C@@H](C(=O)N(C)C)CC[C@@H]3NC(=O)C(=O)Nc3ccc(Cl)cn3)sc2C1` is reported as 0.246 ± 0.0966 µg/mL (healthy humans ABCB1 rs1045642 CC, plasma; oral, 60 mg single dose).
`CC(C)NC[C@@H](C(=O)N1CCN(c2ncnc3c2[C@H](C)C[C@H]3O)CC1)c1ccc(Cl)cc1` gave a Cmax of 0.0785 µg/mL (human, Severe hepatic function, plasma; oral, 100 mg single dose, NCI classification, geometric mean).
With `CCOc1cc([C@@H](CS(C)(=O)=O)N2C(=O)c3cccc(NC(C)=O)c3C2=O)ccc1OC` the Cmax was 0.166 µg/mL (healthy human, both sexes, plasma; oral, 30 mg single dose, added: rifampicin multiple oral doses).
For `N#Cc1ccnc(N2C(=O)CC[C@H]2C(=O)N(c2cncc(F)c2)[C@H](C(=O)NC2CC(F)(F)C2)c2ccccc2Cl)c1`, the Cmax was 8.21 µg/mL (human patients, plasma; oral, 500 mg once daily, induction cycle 1 day 14, mean, added: chemotherapy).
The Cmax of `CCCS(=O)(=O)N[C@H]1C[C@@H](N(C)c2ncnc3[nH]ccc23)C1` is reported as 1.28 µg/mL (humans, mild hepatic impairment; oral, 200 mg single).
For `CC(C)(Sc1ccncc1-c1ccc(C#N)c2ccccc12)C(=O)O`, the Cmax was 0.00384 µg/mL (human male, plasma; oral, 2.5 mg once daily, day 7 or 21, arithmetic mean).
The Cmax of `O=C(Cc1cccc(OC(F)(F)F)c1)Nc1ccc(CCCCc2nnc(NC(=O)Cc3ccccn3)s2)nn1` is reported as 1.06 µg/mL (human patients, plasma; oral, 800 mg three times daily fasted, cycle 1 day 15 steady state).
For `O=C(CCCCCCC(=O)Nc1ccccc1)NO`, the Cmax was 6.15 µM (human, serum; oral, 1700 mg once daily).
`CC(C)n1nc(-c2ccc3oc(N)nc3c2)c2c(N)ncnc21` gave a Cmax of 0.379 µg/mL (human, plasma; oral, 30 mg once weekly, cycle 1 day 15).
`Cc1cc(-c2nnc(N)nc2-c2ccc(F)cc2)cc(Cl)n1` has a Cmax of 0.656 µg/mL (human patients, plasma; oral, 75 mg nanosuspension, single dose, arithmetic mean).
`CCCCC[C@H](O)CC[C@@H]1[C@H]2Cc3cccc(OCC(=O)O)c3C[C@H]2C[C@H]1O` has a Cmax of 0.00103 ± 0.00054 µg/mL (human Japanese PAH patients, plasma; inhalation, 54 µg four times daily, week 12).
`CN1CC[C@H](c2c(O)cc(O)c3c(=O)cc(-c4ccccc4Cl)oc23)[C@H](O)C1` gave a Cmax of 2.46 µM (HPLC-MS/MS; human, plasma; intravenous, 35 then 35 mg/m^2, 30 min bolus then 4 h infusion, cycle 1, mean, added: irinotecan 180 mg/m^2).
`O=C(O)CCCCCCCNC(=O)c1ccccc1O` gave a Cmax of 1.09 µM (human mild renal impairment, plasma; oral, dose not given, after tenth daily dose, geometric mean).
For `CCn1c(C(=O)c2cc(C)cc(C#N)c2)c(C(C)C)c(=O)[nH]c1=O`, the Cmax was 0.44 to 1.25 µg/mL (healthy humans, plasma; oral, 75 to 600 mg single dose, range of dose-group means).
`C=C[C@@H]1C[C@]1(NC(=O)[C@@H]1C[C@@H]2CN1C(=O)[C@H](C(C)(C)C)NC(=O)O[C@@H]1C[C@H]1CCCCCc1nc3ccc(OC)cc3nc1O2)C(=O)NS(=O)(=O)C1CC1` has a Cmax of 0.0394 µM (healthy adult humans, plasma; oral, 100 mg, fixed-dose combination with elbasvir 50 mg, fasted).
`O=C(NC[C@H](O)CO)c1ccncc1Nc1ccc(I)cc1F` gave a Cmax of 0.196 µg/mL (human; oral, 45 mg, single dose alone).
The Cmax of `CNC(=O)c1cccc2cc(Oc3ccnc4cc(OCC5(N)CC5)c(OC)cc34)ccc12` is reported as 0.254 ± 0.148 µg/mL (human; oral, 10 mg, single dose, intermittent arm).
`CC(C)(Sc1ccncc1-c1ccc(C#N)c2ccccc12)C(=O)O` has a Cmax of 0.0153 µg/mL (human, plasma; oral, 9 mg daily, day 7, geometric mean, added: febuxostat 80 mg).
The Cmax of `CCOC(=O)C1=C[C@@H](OC(CC)CC)[C@H](NC(C)=O)[C@@H](N)C1` is reported as 0.036 ± 0.01 µg/mL (healthy Indian human, plasma; oral, 75 mg single, Tamiflu reference capsule fed).
The Cmax of `COc1cc(F)c(F)c(Nc2ccc(I)cc2F)c1NS(=O)(=O)C1(C[C@H](O)CO)CC1` is reported as 1.22 µg/mL (human patients, plasma; oral, 50 mg twice daily, cycle 1 day 14).
The Cmax of `O=C(CCCCCCC(=O)Nc1ccccc1)NO` is reported as 0.643 µM (human, serum; oral, 300 mg, median).
With `COc1ccc2nc([S@@+]([O-])Cc3ncc(C)c(OC)c3C)[nH]c2c1` the Cmax was 4.03 ± 2.41 µg/mL (human, CYP2C19 intermediate metabolizers, plasma; oral, 40 mg/day, day 1).
For `Cc1[nH]c(/C=C2\C(=O)Nc3ccccc32)c(C)c1CCC(=O)O`, the Cmax was 4.68 ± 1.49 µg/mL (human patients; oral, 200 mg/m^2 three times daily, after meal, dose 82).
`CCc1nc(C(N)=O)c(Nc2ccc(N3CCC(N4CCN(C)CC4)CC3)c(OC)c2)nc1NC1CCOCC1` gave a Cmax of 0.00624 µg/mL (human, moderate hepatic impairment, plasma; oral, 10 mg, single dose, fasted, geometric LS mean).
With `Cl.NCCc1c[nH]c(=S)n1[C@H]1COc2c(F)cc(F)cc2C1` the Cmax was 0.166 µg/mL (mean; human, male, plasma; oral, 200 mg, fed, high-fat high-calorie meal).
The Cmax of `COc1ccnc(C[S+]([O-])c2nc3ccc(OC(F)F)cc3[nH]2)c1OC` (centres unmarked) is reported as 9.32 µg/mL (human, CYP2C19 rapid metabolizers, plasma; oral, 40 mg/day, day 1).
